Measurements from different studies.
Each line is one published result; not all experiments were run side by side.
Target: Sodium-dependent noradrenaline transporter (SLC6A2, Homo sapiens, UniProt P23975)
UniProt P23975, sequence (whole entry, looked up): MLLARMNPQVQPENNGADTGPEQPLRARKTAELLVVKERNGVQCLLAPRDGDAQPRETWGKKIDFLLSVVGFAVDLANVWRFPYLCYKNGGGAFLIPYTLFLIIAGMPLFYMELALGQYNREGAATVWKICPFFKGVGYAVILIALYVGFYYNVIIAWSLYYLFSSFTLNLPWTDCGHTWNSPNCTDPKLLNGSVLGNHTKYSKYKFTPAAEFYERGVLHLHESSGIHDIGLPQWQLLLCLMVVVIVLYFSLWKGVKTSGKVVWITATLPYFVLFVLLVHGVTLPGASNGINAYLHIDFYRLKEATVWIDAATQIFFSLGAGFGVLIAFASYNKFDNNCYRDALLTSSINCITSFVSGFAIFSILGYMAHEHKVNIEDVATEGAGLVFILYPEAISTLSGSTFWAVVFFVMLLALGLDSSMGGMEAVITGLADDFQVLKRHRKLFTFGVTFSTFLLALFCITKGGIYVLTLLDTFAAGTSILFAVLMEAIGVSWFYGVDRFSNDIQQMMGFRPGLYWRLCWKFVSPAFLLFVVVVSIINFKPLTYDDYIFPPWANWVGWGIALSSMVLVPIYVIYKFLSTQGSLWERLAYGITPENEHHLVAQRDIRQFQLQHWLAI

Structure (SMILES) | assay | conditions | inhibition [%]
COc1ccc(C(=O)Nc2c(-c3cccs3)nc3ccccn23)cc1 | ligand displacement, radioligand | 10 µM | < 50
C[Si]1(C[C@H](CN)CC(=O)O)CCCC1 | ligand displacement, radioligand | 70 µM | -12
O=C1c2sc(-c3ccc(N4CCC(F)C4)nc3F)nc2CCN1c1cccnc1 (stereo not drawn) | ligand displacement, radioligand | 1 µM | 1
CCOC(=O)C12CC1C(n1cnc3c(NC)nc(C#Cc4ccc(F)s4)nc31)C(O)C2O (stereo not drawn) | ligand displacement, radioligand | 10 µM | 17
Cn1ccc2cc(-n3c(=O)[nH]c4sc5c(c4c3=O)CCCC5)ccc21 | transporter uptake, inhibitor | 10 µM | 23
C[Si](C)(C)C[C@H](CN)CC(=O)O | ligand displacement, radioligand | 250 µM | -10
COc1ccc(S(=O)(=O)N2CCc3ccccc3C2)cc1N1CCN(C(=O)c2ccc(F)cc2C(F)(F)F)CC1 | ligand displacement, radioligand | 1 µM | 15.2
COCC(=O)N1CCc2cc(-c3csc(NC(=O)c4cc(OC)cc(OC)c4)n3)ccc21 |  | 10 µM | 4
CNC(=O)C12CC1C(n1cnc3c(NC)nc(C#Cc4ccccc4Cl)nc31)C(O)C2O (stereo not drawn) | ligand displacement, radioligand | 10 µM | -98
Cc1[nH]nc2c1N=C(c1ccccc1Cl)c1cnc(N3CCOCC3)cc1N2 | cell-free assay | 10 µM | 32
COc1ccc(C#CC2=C[C@H]3C[C@@]4(OC(=O)C=C24)[C@H]2CC[C@H](C(OC)OC)N32)cc1 | ligand displacement, radioligand | 10 µM | 8
CCC(=O)N(C)c1ccc(Cl)c(Cl)c1 | binding, radioligand binding | 10 µM | < 10
O=C(O)COc1cccc(NC(=O)c2cc(-c3cccc(F)c3)ccc2F)c1 | ligand displacement, radioligand | 10 µM | 5
CC(C)Cn1c(SCC(=O)N2CCc3ccccc3C2)nc2cc(Cl)ccc2c1=O | ligand displacement, radioligand | 10 µM | 12
CO[C@@H](C)c1c(NC(=O)Nc2cnc(-n3nccn3)c(C(F)(F)F)c2)cnc2sc(C)nc12 | ligand displacement, radioligand | 10 µM | 4.2

A few entries again:
Structure (SMILES) | assay | conditions | inhibition [%]
O=C1c2sc(-c3ccc(N4CCC(F)C4)nc3F)nc2CCN1c1cccnc1 (stereo not drawn) | ligand displacement, radioligand | 1 µM | 1
